# Assay results pooled from the literature.
# Numbered parts are unrelated; each lists some results of a single study. Positions count from the first letter of the parent shown.

# Block 1
# Target: CCNB2, cyclin fold, Cln2 fusion (human)
# Method: yeast growth competition, sequencing
# Sample: yeast
# Setting: weak parent motif
# Reference: not given
# Direction: higher = stronger binding
# Starting sequence: INSM1 docking peptide (human); PKAIRKLHFEDEV; partner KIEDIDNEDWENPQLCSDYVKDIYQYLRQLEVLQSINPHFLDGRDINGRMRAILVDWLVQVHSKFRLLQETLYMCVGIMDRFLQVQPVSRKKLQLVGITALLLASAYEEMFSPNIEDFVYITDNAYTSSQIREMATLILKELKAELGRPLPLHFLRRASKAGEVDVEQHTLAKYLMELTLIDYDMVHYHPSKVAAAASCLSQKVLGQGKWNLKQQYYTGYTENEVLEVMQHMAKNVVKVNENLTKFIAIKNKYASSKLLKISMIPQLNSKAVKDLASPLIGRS
Variant,normalised enrichment score
E10C,0.214
I4S,0.276
E10K,0.356
H8Y,0.401
A3W,-0.0966
R5T,0.0796
I4V,-0.0842
R5M,0.183
L7M,0.485
R5H,-0.109
H8F,-0.0659
K2G,0.153
K6I,0.173
K6A,0.0474
L7Y,0.459
K6P,-0.177
A3D,-0.354
F9V,0.216
H8M,0.00919
E12H,0.653
H8A,0.403
D11H,0.421

# Block 2
# Target: ABI1, truncated, D143A, DHFR fusion (Arabidopsis thaliana)
# Method: DHFR PCA, deep sequencing
# Sample: yeast
# Setting: methotrexate growth selection, single substitutions
# Added: (+)-ABA 4.8 µM
# Reference: wild-type fitted maximum
# Direction: higher = stronger binding
# Starting sequence: PYL1, truncated, DHFR fusion (Arabidopsis thaliana); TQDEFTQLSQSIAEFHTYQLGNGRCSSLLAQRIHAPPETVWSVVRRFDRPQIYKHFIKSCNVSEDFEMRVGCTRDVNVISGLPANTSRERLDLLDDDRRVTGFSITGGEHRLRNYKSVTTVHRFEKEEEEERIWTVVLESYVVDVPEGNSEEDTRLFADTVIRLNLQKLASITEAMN; partner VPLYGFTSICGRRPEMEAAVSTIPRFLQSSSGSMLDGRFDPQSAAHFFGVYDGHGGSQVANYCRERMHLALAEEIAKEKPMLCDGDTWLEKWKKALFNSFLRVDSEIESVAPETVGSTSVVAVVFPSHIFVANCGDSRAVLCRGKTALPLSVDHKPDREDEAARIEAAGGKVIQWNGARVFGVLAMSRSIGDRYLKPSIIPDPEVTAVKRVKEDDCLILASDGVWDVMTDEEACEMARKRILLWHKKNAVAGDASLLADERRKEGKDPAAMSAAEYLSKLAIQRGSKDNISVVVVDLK
Variant,relative binding score
E4A,63.9%
C60G,1.99%
T135D,-0.936%
V44K,-2.14%
S9N,69.5%
Y141S,-7.5%
T101E,-13.7%
K116L,-11%
T1A,72.1%
R24L,45.5%
H110S,17.1%
R32F,56.2%
L94C,13.2%
S117F,-11.3%
D159A,2.67%
D48W,8.33%
R32M,65.4%
T6M,73.5%
T120S,90.6%
E125R,74.5%
R88C,68.4%
M176W,63%
N22K,78.3%

# Block 3
# Target: Interferon regulatory factor 5, full length, phosphomimetic (IRF5, Homo sapiens, UniProt Q13568-2, residues 1-514, K96S/S451D/S453D/S456D/S462D)
# Method: protein-binding microarray
# Molecule type: double-stranded DNA, one strand shown
# Sample: in vitro
# Tested at: 250 nM
# Setting: 60-bp whole probe
# Added: salmon DNA 0.4 mg/ml
# Reference: random background probes
# Direction: higher = stronger binding
# Constant ends, left off below: GCCTAGCAC … GTCTTGATTCGCTTGACGCTGCTG
Strand,log fluorescence
TTAGGTATCGGTTTCGGTTGGTGCTAG,9.84 z-score
TCACCTTCTACTCTCCTACTGTGCTAG,0.465 z-score
GACGATTTCTGTCTCGAGACGTGCTAG,1.83 z-score
GACGGTCTGGGACTGGGGACGTGCTAG,-0.624 z-score
TCACCTCACAGTTTGTAACTGTGCTAG,-0.154 z-score
CACACTTTCCCCTTCCTAGTGTGCTAG,1.98 z-score
GTGAACCGGTCTCTCAGACCGTGCTAG,-0.37 z-score
GACGATCTCAGACTGGATACGTGCTAG,0.144 z-score
GACGATTCCAGTTTCAAGACGTGCTAG,1.3 z-score
GACGATTTCATACTGGAGACGTGCTAG,0.692 z-score
TTCACTTTCCAAAGCGTGAGGTGCTAG,0.638 z-score
TTAGAACTGAGTTTCGAGTAGTGCTAG,5.92 z-score
TCACTCACCTAGTTTCATACTGTGCTA,2 z-score
AAAAATTAGTGTTTCCCCTAGTGCTAG,0.755 z-score
TTAGGTAGCGGGTTTCGGTTAGTGCTA,7.52 z-score
TTAGGACTGGACACGGGGTTAGTGCTA,-0.832 z-score
TTTTAAAATGGACACTGTACAGTGCTA,0.289 z-score

# Block 4
# Target: RNA binding protein fox-1 homolog 2, RRM domain, GST-SBP tag (RBFOX2, Homo sapiens, UniProt O43251-10, residues 100-194)
# Method: RNA Bind-n-Seq
# Molecule type: RNA
# Sample: in vitro
# Tested at: 365 nM
# Setting: natural RNA segment, single round, ends assumed
# Reference: no-protein control
# Direction: higher = stronger binding
# Constant ends, left off below: GGGAGUUCUACAGUCCGACGAUC … UGGAAUUCUCGGGUGCCAA
# Target sequence (chain): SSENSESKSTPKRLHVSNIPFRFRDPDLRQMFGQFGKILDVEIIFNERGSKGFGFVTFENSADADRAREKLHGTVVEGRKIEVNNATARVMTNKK
Strand,RBNS enrichment (R)
UUCCUUGCCUCUUUACAGUACACUAAUCCGCCUAAAGGUGGCUGUUUGAUAUUUACCGUGAUAAUUACCUUACCUACCUACCUACUUUCAAUACACUUUAGGUAGCCGAU,1.06
AAGGACUCGCAGGGGCAGUCGCAGCUGAUGUUUGAGUGCCCUGGGAUGGGAGUCAGACUGGCUGAGGUUUCAAUUUUGCAUUCAUGGCCAGCCACCGUUCCAGGUCCUGU,0.488
CAGGAGCAACUGUCCAGCCCUCCAGAAGAGACAGCAAGCAGCCCCCCUACCCACUCUGGCCUCCCCAAUGGUACUUUGACCUCCAGUGUAGGGCUAUACUAUACAUAUAU,0.34
AGUCACUCUCCCUCUCUGGGCAUGUCUGCUACAAAUGGACAAGAUUAUUUCAGAGGUCACUGAAGACUGUGAUUACAUGCACCUGCCUUAGAAGGUAGGAUUUUCUUCCC,0.378
CUCCUCCCUGCCCCCCUUUUCUUACAAGGAAAGAAAAGUUGGAUCGUCAGUGGCCAGCCUCCCCUCAGAGAGUUCCGUUGGUAGAUACGCUGCUCAUGUCCCCUCUCCCU,0.4
CCUUUGCAGGAUGGAACUACGGGGCUUACAGGAGCUUUUGUGUGCCUGGUAGAAACUAUUUCUGUUCCAGUCACAUUGCCAUCACUCUUGUACUGCCUGCCACCGCGGAG,0.218
CACUGUUAGGCUUGGGCAUUAGCCUGGCCCAAGAGAUGCCACUGGGGACUAGAGGACAGAAGGGGACGUUCCCUUCACCUGGGAAUUCUCACCCUGGUGUCAACAUGCUG,0.279
AUGAUGAUGUGCACACAGUCAUUCUACAGGAGCUUUGCACAGCCUUCCUGCAGUUCUCAAAGGGGAGCCUGCAGACUAGGCCUUCAGAGGGUUCCUUCUGUUUCCUAUUU,0.356
CUAUAGUUUCCAAAGAAACUUAACUUCCUGGGUAUUAACUUAAUUUUAUUAGAACACUGCAGUUGACUGAAAACAUGCAGAUGCACUGGAAGAGAACCUUGUGCUGAGGU,0.401
UACCAGCAGAGUAAAUGUGGCCAUUGACUGGCCUAAGCAUUCUCUAAGAGUUGUGCUAGAUGGCUUCCAUGAUCUUGUCAAACCUAGAAAUUCCAAAAUCUCGAGGAAGC,0.246
GAGAGCAGUGAUGCGGAUGGGUACCCGGGCACACCAGCCCUCAGAGACCUGAGCUCUUCUGGCCACGUGGAACCUCGAACCCGAGCUCCUGCAGAAGUGGCCCUGGAGAU,0.312
CAAAGAAUCUCAAAUGUAAAAUUUUAUAUUGGGUUUGAACCACUGACGUGUCCAUUCUGAUAUAUGCAGUCAUUUUGAAUUUGGUCUGUGCCUUCUCUGGAUCCCUCCCU,0.268

# Block 5
# Target: Sal-like protein 4, full length isoform A (SALL4, Homo sapiens, UniProt Q9UJQ4, residues 1-1053)
# Chain of UniProt Q9UJQ4 (whole entry, looked up): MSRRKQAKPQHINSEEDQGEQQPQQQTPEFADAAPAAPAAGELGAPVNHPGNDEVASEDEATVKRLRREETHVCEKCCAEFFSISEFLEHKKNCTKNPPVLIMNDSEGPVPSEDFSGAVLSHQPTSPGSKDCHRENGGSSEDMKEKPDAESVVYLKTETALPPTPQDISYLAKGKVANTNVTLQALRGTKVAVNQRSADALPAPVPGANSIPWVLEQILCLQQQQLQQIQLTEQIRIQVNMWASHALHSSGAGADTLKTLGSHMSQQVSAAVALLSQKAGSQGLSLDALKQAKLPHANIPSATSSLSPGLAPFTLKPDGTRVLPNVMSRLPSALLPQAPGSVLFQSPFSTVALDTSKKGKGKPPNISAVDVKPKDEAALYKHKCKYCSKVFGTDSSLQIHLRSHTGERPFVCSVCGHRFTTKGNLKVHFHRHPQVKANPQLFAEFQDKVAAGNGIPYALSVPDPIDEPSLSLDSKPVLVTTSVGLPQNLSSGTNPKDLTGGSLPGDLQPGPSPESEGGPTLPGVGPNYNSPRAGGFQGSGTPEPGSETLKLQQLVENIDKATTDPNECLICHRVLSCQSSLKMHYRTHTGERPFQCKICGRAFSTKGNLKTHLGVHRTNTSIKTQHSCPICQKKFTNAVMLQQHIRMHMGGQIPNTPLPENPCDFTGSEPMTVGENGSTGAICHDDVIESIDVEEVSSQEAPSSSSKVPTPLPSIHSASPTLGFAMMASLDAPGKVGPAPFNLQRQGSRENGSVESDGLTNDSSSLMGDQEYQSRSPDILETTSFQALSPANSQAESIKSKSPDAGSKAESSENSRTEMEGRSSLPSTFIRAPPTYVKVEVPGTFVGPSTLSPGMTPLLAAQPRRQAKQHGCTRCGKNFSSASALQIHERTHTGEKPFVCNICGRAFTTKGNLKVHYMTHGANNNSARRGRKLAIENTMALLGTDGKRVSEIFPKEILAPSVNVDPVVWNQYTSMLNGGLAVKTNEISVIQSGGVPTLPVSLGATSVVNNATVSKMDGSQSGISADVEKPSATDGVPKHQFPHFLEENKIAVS
# Method: universal PBM
# Molecule type: double-stranded DNA, one strand shown
# Sample: in vitro
# Tested at: 600 nM
# Setting: 8-mer, flanks averaged, mean of replicates
# Direction: higher = stronger binding
Strand,E-score
TAACTGCA,0.169
AGTGCAAG,0.00171
AGTTACAG,0.0414
AATATTCC,0.374
CGCGGGAC,-0.237
CGGTCAAG,-0.204
GGGGCCCC,-0.437
CTTGGGCC,-0.318
TGATCTAA,0.223
CACCGTTC,-0.105
ACGCGTTA,-0.00377
ACGATGAA,0.22
CCGGGTCA,-0.296
ACGCGCCG,-0.34
CGGCCCAC,-0.337
AAGTACAG,0.116
ATACCCCG,-0.187
CAGATTCG,0.0105
CTCGAGCC,-0.201
ACGAATAT,0.349
TCTAAAGA,0.122
TCCAGGGA,-0.234
CTGAACGC,-0.22
CTTCAGTC,-0.0894
AGCAACAC,-0.061

# Excerpt of the above (block 1):
Variant,normalised enrichment score
I4V,-0.0842
K2G,0.153
H8M,0.00919
A3D,-0.354
H8A,0.403
E10C,0.214
R5H,-0.109
A3W,-0.0966
K6P,-0.177
